{"data": "Measured values of several laboratories", "organism": "Acinetobacter baumannii", "note": "Compare with care: the assays were run in different laboratories."}
{"SMILES": "Cc1cc(Nc2ccc(S(F)(F)(F)(F)F)cc2)n2ccnc2n1", "test system": "HR1 clinical isolate", "MIC": "1.09 µg/mL"}
{"SMILES": "NC[C@H]1O[C@H](O[C@H]2[C@H](O)[C@@H](O[C@H]3O[C@H](CO)[C@@H](O)[C@H](N)[C@H]3O)[C@H](N)C[C@@H]2N)[C@H](O)[C@@H](O)[C@@H]1O", "assay": "broth microdilution", "test system": "22933", "MIC": "4 µM"}
{"SMILES": "O=[N+]([O-])c1ccc2[nH]c(CNCC34CC5CC(CC(C5)C3)C4)nc2c1", "test system": "ATCC 17961", "MIC": "> 128 µg/mL"}
{"SMILES": "CN(C)c1ccc2nc3ccc(=[N+](C)C)cc-3sc2c1", "test system": "ATCC BAA-1797, resistant", "conditions": "18 h, 37 °C, dark", "MIC": "> 128 µM"}
{"SMILES": "Cc1c(CN(C)C(=O)/C=C/c2cnc3c(c2)CC(CCN)C(=O)N3)oc2ccccc12.Cl (stereo not shown)", "assay": "broth microdilution", "test system": "W41979", "MIC": "16 µg/mL"}
{"SMILES": "O=[N+]([O-])c1ccc(O)c2ncccc12", "test system": "1794", "MIC": "9.38 µM"}
{"SMILES": "C[C@@H](O)[C@H]1C(=O)N2C(C(=O)O)=C(S[C@@H]3CN[C@H](C(=O)N(C)C)C3)[C@H](C)[C@H]12", "test system": "clinical isolate 1B5", "MIC": "96 µg/mL"}
{"SMILES": "CNC(C)C1CCC(N)C(OC2C(N)CC(N)C(OC3OCC(C)(O)C(NC)C3O)C2O)O1 (stereo not shown)", "assay": "broth microdilution", "test system": "NCTC 13424", "conditions": "20 h, 5% CO2", "MIC": "> 512 µg/mL"}
{"SMILES": "CO[C@H]1/C=C/O[C@@]2(C)Oc3c(C)c(O)c4c(O)c(c(/C=N/N5CCN(C)CC5)c(O)c4c3C2=O)NC(=O)/C(C)=C\\C=C\\[C@H](C)[C@H](O)[C@@H](C)[C@@H](O)[C@@H](C)[C@H](OC(C)=O)[C@@H]1C", "assay": "broth microdilution", "test system": "ATCC 17978", "MIC": "5 µM"}
{"SMILES": "CC(NCCC(c1ccccc1)c1ccccc1)c1ccccc1 (stereo not shown)", "test system": "efflux-deficient", "MIC": "8 µg/mL"}
{"SMILES": "CCO/N=C(\\C(=O)N[C@@H]1C(=O)N2C(C(=O)[O-])=C(Sc3nc(-c4cc[n+](C)cc4)cs3)CS[C@H]12)c1nsc(NP(=O)(O)O)n1", "assay": "broth microdilution", "conditions": "24 h, 37 °C, clinical isolate", "MIC": "> 400 µM"}
{"SMILES": "Cc1c(CN(C)C(=O)/C=C/c2cnc3c(c2)CC(NC(=O)OC(C)(C)C)C(=O)N3)oc2ccccc12 (stereo not shown)", "assay": "broth microdilution", "test system": "AR-0078", "MIC": "> 32 µg/mL"}
{"SMILES": "C[C@H]1COc2c(N3CCN(C)CC3)c(F)cc3c(=O)c(C(=O)O)cn1c23", "assay": "broth microdilution", "test system": "ATCC 17978", "MIC": "0.16 µM"}
{"SMILES": "CO/N=C(\\C(=O)N[C@@H]1C(=O)N2C(C(=O)O)=CCS[C@H]12)c1csc(N)n1", "assay": "broth microdilution", "test system": "BNCC 194496", "MIC": "4 µg/mL"}
{"SMILES": "CN(C)c1ccc(O)c2c1C[C@H]1C[C@H]3[C@H](N(C)C)C(O)=C(C(N)=O)C(=O)[C@@]3(O)C(O)=C1C2=O", "assay": "broth microdilution", "test system": "NCTC 13424", "conditions": "20 h, ambient air", "MIC": "4 µg/mL"}
{"SMILES": "C/C(=C\\C(=O)OCCCCCCCCC(=O)O)C[C@@H]1OC[C@H](C[C@@H]2O[C@H]2[C@@H](C)[C@H](C)O)[C@@H](O)[C@H]1O", "assay": "broth microdilution", "test system": "ATCC 17978", "MIC": "320 µM"}
